Measured values from different studies.
Protocols differ between the studies behind these lines. Numbers after ± are the reported error. ≈ marks a conversion by molar mass, not a printed value.

| SMILES | organism | test | system | setting | scale | endpoint | result |
| --- | --- | --- | --- | --- | --- | --- | --- |
| CCOC(=O)c1c(-c2ccc(C)cc2)oc2nc(N3CC[C@H](F)C3)ccc12 | Trypanosoma cruzi | – | 3T3 host cells, Tulahuen beta-galactosidase | 6 days | – | EC50 | 10.9 µM |
| C=C(C)[C@@H]1CCC=C2CC[C@]3(C)[C@H](CC[C@@H]4[C@@]5(C)CCCNC(C)(C)[C@@H]5CC[C@]43C)[C@H]21 | Human cytomegalovirus | cytopathic effect | HFF, AD169 | – | – | EC90 | > 6 µM |
| O=C(O)CN1C(=O)/C(=C/c2ccc(-c3ccc(N(c4ccccc4)c4ccccc4)cc3)cc2)NC1=S | Streptococcus pneumoniae | broth microdilution | ATCC 49619 | – | – | MBC/MIC ratio | 2 |
| COc1ccc(C2OC(=O)c3ccc(-c4ccccc4)c(O)c32)c(OC)c1OC (stereo not drawn) | Naegleria fowleri | parasite growth, resazurin | ATCC30808 | 48 h | – | IC90 | 103 µM |
| CN(C)c1cc(CNCc2ccccc2)c(O)c2c1C[C@H]1C[C@H]3[C@H](N(C)C)C(O)=C(C(N)=O)C(=O)[C@@]3(O)C(O)=C1C2=O | Streptococcus pneumoniae | – | 157E | 50% mouse serum | – | MIC | 0.25 µg/mL (≈ 0.434 µM) |
| CC1(CCCCCCCCCCOCCCOP(=O)(O)CO[C@H](CO)Cn2ccc(N)nc2=O)COC1 | JC polyomavirus | qPCR | COS-7, MAD-4 | – | reference: CC50 over EC50 | selectivity index | 48 |
| CNC1=C([N+](=O)[O-])C2(C(=O)Nc3ccc(Cl)cc32)C2=C(O1)C(=O)c1ccccc1C2=O (stereo not drawn) | Streptococcus pneumoniae | – | MTCC 655 | 250 µg/mL, 24 h | – | growth inhibition | 100% |
| CS(=O)(=O)c1ccc(-c2cn([C@@H]3O[C@H](CO)[C@@H](O)[C@H]3O)c3ncnc(N)c23)cc1 | Trichomonas vaginalis | resorufin | G3, metronidazole-sensitive | 24 h + 2 h, 2% O2 | – | EC50 | 74.2 ± 0.8 µM |
| CCC1(C)CCN(Cc2cc(N(C)C)c3c(c2O)C(=O)C2=C(O)[C@]4(O)C(=O)C(C(N)=O)=C(O)[C@@H](N(C)C)[C@@H]4C[C@@H]2C3)CC1 | Streptococcus pneumoniae | – | ATCC 700905, Tet M ribosome protection | – | – | MIC | < 0.06 µg/mL |
| CCCCCn1ccc([C@H](C)[C@](O)(Cn2cnnn2)c2ccc(F)cc2F)n1 | Candida tropicalis | growth, broth microdilution | 2718 | 24 h, 30 °C, ≥50% inhibition | – | MIC | > 4 µg/mL |
| CN(C)c1cc(CN2CCc3ccccc3C2)c(O)c2c1C[C@H]1C[C@H]3[C@H](N(C)C)C(O)=C(C(N)=O)C(=O)[C@@]3(O)C(O)=C1C2=O | Streptococcus pneumoniae | – | 157E | with: mouse serum | reference: no serum | MIC increase | 5 dilutions |
| C[C@@H](c1ccn(Cc2ccc(C(C)(C)C)cc2)n1)[C@](O)(Cn1cnnn1)c1ccc(F)cc1F | Candida tropicalis | growth, broth microdilution | 2718 | 24 h, 30 °C, ≥50% inhibition | – | MIC | < 0.008 µg/mL |
| CN(C)c1cc(CNC2CCCC2)c(O)c2c1C[C@H]1C[C@H]3[C@H](N(C)C)C(O)=C(C(N)=O)C(=O)[C@@]3(O)C(O)=C1C2=O | Streptococcus pneumoniae | – | ATCC 700905, Tet M ribosome protection | – | – | MIC | 0.125 µg/mL (≈ 0.225 µM) |
| CC[C@H](C)[C@H](NC(=O)[C@H](CCCN)NC(=O)[C@H](CC(N)=O)NC(=O)[C@H](Cc1c[nH]c2ccccc12)NC(=O)[C@H](Cc1ccccc1)NC(=O)[C@H](CCCN)NC(=O)[C@H](CCCCNC(=N)N)NC(=O)[C@H](CC(C)C)NC(=O)[C@H](Cc1c[nH]c2ccccc12)NC(=O)[C@H](CCCN)NC(=O)[C@H](CCCCNC(=N)N)NC(=O)[C@H](CC(C)C)NC(=O)CNC(C)=O)C(=O)N[C@@H](CCCN)C(=O)N[C@@H](CCCCNC(=N)N)C(N)=O | all bacteria tested | – | – | – | – | geometric mean MIC | 3.51 µM |
| COc1ccc(-n2nc3c(=O)[nH]nc(C)c3c2C)cc1 | Zika virus | – | Vero, MR766 | – | reference: CC50 over EC50 | selectivity index | 2.9 |

A few entries again:
| SMILES | organism | test | system | setting | scale | endpoint | result |
| --- | --- | --- | --- | --- | --- | --- | --- |
| O=C(O)CN1C(=O)/C(=C/c2ccc(-c3ccc(N(c4ccccc4)c4ccccc4)cc3)cc2)NC1=S | Streptococcus pneumoniae | broth microdilution | ATCC 49619 | – | – | MBC/MIC ratio | 2 |
| C=C(C)[C@@H]1CCC=C2CC[C@]3(C)[C@H](CC[C@@H]4[C@@]5(C)CCCNC(C)(C)[C@@H]5CC[C@]43C)[C@H]21 | Human cytomegalovirus | cytopathic effect | HFF, AD169 | – | – | EC90 | > 6 µM |
